# Results collected from several papers.
# Every numbered part comes from another study and shows a few of its results, in no order. Changes are numbered by the printed parent chain.

# Sample 1 — method: RNA Bind-n-Seq; molecule type: RNA; medium: in vitro; concentration: 1 µM; setting: whole 134-nt RNA, ends assumed; together with: 150 mM KCl; baseline: input library; reading: higher = stronger binding
# Target: Ras GTPase-activating protein-binding protein 1, C-terminal RGG region (G3BP1, Homo sapiens, UniProt Q13283)
# Sequence of UniProt Q13283 (whole entry, looked up): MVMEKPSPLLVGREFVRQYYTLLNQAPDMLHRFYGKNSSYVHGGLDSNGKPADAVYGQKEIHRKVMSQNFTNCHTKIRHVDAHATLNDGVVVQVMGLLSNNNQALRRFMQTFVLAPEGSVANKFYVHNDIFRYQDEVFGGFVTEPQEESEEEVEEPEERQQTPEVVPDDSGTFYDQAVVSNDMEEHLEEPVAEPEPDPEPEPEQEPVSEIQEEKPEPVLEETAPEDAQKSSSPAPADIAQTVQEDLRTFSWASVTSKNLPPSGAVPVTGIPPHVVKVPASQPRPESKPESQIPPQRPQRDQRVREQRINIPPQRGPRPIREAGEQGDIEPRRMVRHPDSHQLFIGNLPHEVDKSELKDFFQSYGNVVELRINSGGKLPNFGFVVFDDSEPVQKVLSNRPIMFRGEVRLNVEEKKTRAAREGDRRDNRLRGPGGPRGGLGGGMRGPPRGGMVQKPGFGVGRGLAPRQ
# Shared flanks, not repeated: GGGAGUUCUACAGUCCGACGAUC … UGGAAUUCUCGGGUGUCAAGG
Sequence,log2 enrichment
UAACUUUAGAGGAGGAUCUGAUGGAUAUGGCAGUGGACGUGGAUUUGGGGAUGGCUAUAAUGGGUAUGGAGGAGGACCUGGAGGUUGCAA,-0.905
UCAAGUCCUGUGCUACACAUCGUAUGUACCGAAUCGGUUUGGAAAAAAAGGUGGAAAGUAUUAUGUUACGCCGUUCGGAUCUGCACUUCC,-1.22
GCAGGAAGUAAAAACAAAUGGAAAUGCUUCGGAUAGUGGCAGGGGUGGGGGUUGCUAAGGAACGGGUGGGAUGGGAGUGGGUAAAGAGUU,1.77
AGUCCUGUGCUACACAUCGUAUGUACCGAAUCGGGUUUUUUUGGGAGGGUUUUUGGGAAAGUAUUAUGUUACGCCGUUCGGAUCUGCACU,0.87
CUCAAGUCCUGUGCUACACAUCGUAUGUACCGAAUCGGGAAGGAAGGGGAAGGGAAAGUAUUAUGUUACGCCGUUCGGAUCUGCACUUCC,0.969
UGGCCCUGGUGGCAUUCGGGGAGGAAGAGGUGGCCUCAUGGAUCGUGGUGGUCCCGGUGGAAUGUUCAGAGGUGGCCGUGGUGGAGACAG,2.18
AGUCCUGUGCUACACAUCGUAUGUACCGAAUCGGGUUUUUUUGGGUGGGAAAAAGGGAAAGUAUUAUGUUACGCCGUUCGGAUCUGCACU,0.821
CAAGUCCUGUGCUACACAUCGUAUGUACCGAAUCGGAAAGGUUUUUUUGGUUUGGAAAGUAUUAUGUUACGCCGUUCGGAUCUGCACUUC,-2.17
UCAAGGGUUAUACACGGAAAGCCGCUGCGCUGGAAGCGAUGAAGGACUACACCAAAGCCAUGGAUGUGUACCAGAAGGCGCUAGACCUGG,-1.49
CCUGUGCUACACAUCGUAUGUACCGAAUCAAACCCCCAAACCCCCCCAAAUUUUUUUAAAAAAGUAUUAUGUUACGCCGUUCGGAUCUGC,-0.973

# Sample 2 — target: CCND2, cyclin fold, Cln2 fusion (human); method: yeast growth competition, sequencing; medium: yeast; setting: weak parent motif; baseline: not given; reading: higher = stronger binding
# Starting sequence: CDC6 docking peptide (human); TLKGRRLVFDNQL
Change,normalised enrichment score
R6C,0.538
F9N,-0.0602
G4T,-0.274
V8H,0.254
R5Y,-0.0655
G4Y,-0.0596

# Sample 3 — method: aptamer microarray, sandwich; molecule type: DNA with 2'F-ANA; medium: in vitro; concentration: 200 nM; together with: Cy3 exosite-II aptamer, 400 nM; reading: higher = stronger binding; sequence: GGTTGGTGTGGTTGG
# Target: Prothrombin, mature alpha-thrombin (F2, Homo sapiens, UniProt P00734)
# Setting: whole 15-mer aptamer, many near background
Modification,mean fluorescence intensity
2'F-ANA at 1 2 3 5 10 12 13 15,45.5 a.u.
2'F-ANA at 5 6 8 9 10 12 13,48.3 a.u.
2'F-ANA at 1 3 4 5 6 7 8 10 11 12 13 14,47.5 a.u.
2'F-ANA at 1 2 4 5 6 9 11 13 14,48.6 a.u.
2'F-ANA at 1 2 5 6 8 9 10 13 14 15,49.8 a.u.
2'F-ANA at 1 2 3 4 6 11 14,55.3 a.u.
2'F-ANA at 1 9 10 11,52.4 a.u.
2'F-ANA at 5 6 10,42.8 a.u.
2'F-ANA at 1 2 3 4 5 9 11 13 14,55.5 a.u.
2'F-ANA at 2 4 7 8 10 11 15,89 a.u.
2'F-ANA at 1 3 6 10 12 15,130 a.u.
2'F-ANA at 1 4 5 7 9 13 14,41.2 a.u.
2'F-ANA at 3 4 5 9 10 11 13,52.5 a.u.
2'F-ANA at 1 2 4 9 12 13 14,56.8 a.u.
2'F-ANA at 2 5 7 8 9 11 12 13,96 a.u.
2'F-ANA at 4 5 7 11 13 14,45 a.u.

# Further values, each from its own experiment
Substance,target,test,test system,setting,scale,measurement,value
"PhoQ, residues 284 288 289 292 302 303 TGYLSA","PhoP, residues 12 14 15 18 19 LWHSL (Escherichia coli, UniProt P23836)","Sort-seq, measured: YFP reporter",E. coli,"PhoQ-PhoP variant library, together with: 10 µM Mg2+","baseline: high Mg2+ state, higher = stronger signaling",fold induction,6.23

# Repeated from above (sample 3):
Modification,mean fluorescence intensity
2'F-ANA at 1 2 3 4 6 11 14,55.3 a.u.
2'F-ANA at 1 9 10 11,52.4 a.u.
2'F-ANA at 5 6 10,42.8 a.u.
2'F-ANA at 1 2 3 4 5 9 11 13 14,55.5 a.u.
2'F-ANA at 2 4 7 8 10 11 15,89 a.u.
